# Experimental data gathered from unrelated publications.
# Protocols differ between the studies behind these lines. Several values in a cell are separate wells, animals, samples, runs or records. ± marks the error that the study gave.
# Abl1 SH2 domain: Tyrosine-protein kinase ABL1, SH2 domain (Abl1, Mus musculus, UniProt P00520)
# UniProt P00520, sequence (whole entry, looked up): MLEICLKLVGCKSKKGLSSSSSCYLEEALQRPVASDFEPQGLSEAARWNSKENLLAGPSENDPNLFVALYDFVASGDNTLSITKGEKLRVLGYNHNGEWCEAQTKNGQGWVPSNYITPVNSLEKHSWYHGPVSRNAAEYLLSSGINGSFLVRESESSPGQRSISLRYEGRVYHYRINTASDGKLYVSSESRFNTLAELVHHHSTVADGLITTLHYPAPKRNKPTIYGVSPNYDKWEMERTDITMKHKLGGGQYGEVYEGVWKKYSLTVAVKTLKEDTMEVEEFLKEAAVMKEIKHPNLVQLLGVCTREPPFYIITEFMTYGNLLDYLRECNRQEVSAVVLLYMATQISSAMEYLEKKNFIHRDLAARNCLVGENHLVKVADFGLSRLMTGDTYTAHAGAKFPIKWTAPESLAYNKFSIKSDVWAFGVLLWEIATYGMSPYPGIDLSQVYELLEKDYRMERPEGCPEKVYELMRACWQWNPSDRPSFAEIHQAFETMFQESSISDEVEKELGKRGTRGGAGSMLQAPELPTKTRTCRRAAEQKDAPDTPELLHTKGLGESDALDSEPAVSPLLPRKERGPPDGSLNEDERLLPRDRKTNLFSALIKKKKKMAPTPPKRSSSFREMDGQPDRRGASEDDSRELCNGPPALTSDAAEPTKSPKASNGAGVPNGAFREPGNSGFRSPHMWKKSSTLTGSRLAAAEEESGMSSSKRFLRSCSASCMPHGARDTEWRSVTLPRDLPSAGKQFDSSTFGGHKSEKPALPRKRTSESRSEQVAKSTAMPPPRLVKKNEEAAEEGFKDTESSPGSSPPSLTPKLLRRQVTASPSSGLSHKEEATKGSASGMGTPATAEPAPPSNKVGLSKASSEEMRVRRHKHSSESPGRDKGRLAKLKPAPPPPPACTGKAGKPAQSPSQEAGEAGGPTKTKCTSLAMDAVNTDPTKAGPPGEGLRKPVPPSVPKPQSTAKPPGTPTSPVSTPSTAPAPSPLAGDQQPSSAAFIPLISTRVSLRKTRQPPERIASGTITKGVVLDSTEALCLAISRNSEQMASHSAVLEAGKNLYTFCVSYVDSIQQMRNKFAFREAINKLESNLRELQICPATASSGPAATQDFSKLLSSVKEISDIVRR
# MTAP: S-methyl-5'-thioadenosine phosphorylase (MTAP, Homo sapiens, UniProt Q13126)
# UniProt Q13126, sequence (whole entry, looked up): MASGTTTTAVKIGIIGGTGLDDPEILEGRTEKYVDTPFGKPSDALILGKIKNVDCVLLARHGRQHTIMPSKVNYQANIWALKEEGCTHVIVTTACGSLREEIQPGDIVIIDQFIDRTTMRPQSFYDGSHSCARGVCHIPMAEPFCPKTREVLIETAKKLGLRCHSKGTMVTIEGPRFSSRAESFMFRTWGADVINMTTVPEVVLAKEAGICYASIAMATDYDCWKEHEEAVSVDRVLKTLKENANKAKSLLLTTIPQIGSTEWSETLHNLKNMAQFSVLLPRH
# B1: UGT1A9 (Homo sapiens, UniProt O60656); chain GKLLVVPMDGSHWFTMRSVVEKLILRGHEVVVVMPEVSWQLGRSLNCTVKTYSTSYTLEDLDREFKAFAHAQWKAQVRSIYSLLMGSYNDIFDLFFSNCRSLFKDKKLVEYLKESSFDAVFLDPFDNCGLIVAKYFSLPSVVFARGILCHYLEEGAQCPAPLSYVPRILLGFSDAMTFKERVRNHIMHLEEHLLCHRFFKNALEIASEILQTPVTEYDLYSHTSIWLLRTDFVLDYPKPVMPNMIFIGGINCHQGKPLPMEFEAYINASGEHGIVVFSLGSMVSEIPEKKAMAIADALGKIPQTVLWRYTGTRPSNLANNTILVKWLPQNDLLGHPMTRAFITHAGSHGVYESICNGVPMVMMPLFGDQMDNAKRMETKGAGVTLNVLEMTSEDLENALKAVINDKSYKENIMRLSSLHKDRPVEPLDLAVFWVEFVMRHKGAPHLRPAAHDLTWYQYHSLDVIGFLLAVVLTVAFITFKCCAYGYRKCLGKKGRVKKAHKSKTH
# B2: Pcf11 CID D117K; chain DTEVIVKDFNSILEELTFNSRPIITTLTKLAEENISCAQYFVDAIESRIEKCMPKQKLYAFYALDSICKNVGSPYTIYFSRNLFNLYKRTYLLVDNTTRTKLINMFKLWLNPNKTGLPLFEGSALEKIEQFLIKAS
# B3: Pcf11 CID D117A; chain DTEVIVKDFNSILEELTFNSRPIITTLTKLAEENISCAQYFVDAIESRIEKCMPKQKLYAFYALDSICKNVGSPYTIYFSRNLFNLYKRTYLLVDNTTRTKLINMFKLWLNPNATGLPLFEGSALEKIEQFLIKAS
# B4: α-TTP I202D; sequence looked up; chain MAEARSQPSAGPQLNALPDHSPLLQPGLAALRRRAREAGVPLAPLPLTDSFLLRFLRARDFDLDLAWRLLKNYYKWRAECPEISADLHPRSIIGLLKAGYHGVLRSRDPTGSKVLIYRIAHWDPKVFTAYDVFRVSLITSELIVQEVETQRNGIKAIFDLEGWQFSHAFQITPSVAKKIAAVLTDSFPLKVRGIHLINEPVDFHAVFSMIKPFLTEKIKERIHMHGNNYKQSLLQHFPDILPLEYGGEEFSMEDICQEWTNFIMKSEDYLSSISESIQ
# B5: α-TTP V206A; sequence looked up; chain MAEARSQPSAGPQLNALPDHSPLLQPGLAALRRRAREAGVPLAPLPLTDSFLLRFLRARDFDLDLAWRLLKNYYKWRAECPEISADLHPRSIIGLLKAGYHGVLRSRDPTGSKVLIYRIAHWDPKVFTAYDVFRVSLITSELIVQEVETQRNGIKAIFDLEGWQFSHAFQITPSVAKKIAAVLTDSFPLKVRGIHLINEPVIFHAAFSMIKPFLTEKIKERIHMHGNNYKQSLLQHFPDILPLEYGGEEFSMEDICQEWTNFIMKSEDYLSSISESIQ
# B6: α-TTP M209D; sequence looked up; chain MAEARSQPSAGPQLNALPDHSPLLQPGLAALRRRAREAGVPLAPLPLTDSFLLRFLRARDFDLDLAWRLLKNYYKWRAECPEISADLHPRSIIGLLKAGYHGVLRSRDPTGSKVLIYRIAHWDPKVFTAYDVFRVSLITSELIVQEVETQRNGIKAIFDLEGWQFSHAFQITPSVAKKIAAVLTDSFPLKVRGIHLINEPVIFHAVFSDIKPFLTEKIKERIHMHGNNYKQSLLQHFPDILPLEYGGEEFSMEDICQEWTNFIMKSEDYLSSISESIQ
# UniProt P33424, sequence (whole entry, looked up): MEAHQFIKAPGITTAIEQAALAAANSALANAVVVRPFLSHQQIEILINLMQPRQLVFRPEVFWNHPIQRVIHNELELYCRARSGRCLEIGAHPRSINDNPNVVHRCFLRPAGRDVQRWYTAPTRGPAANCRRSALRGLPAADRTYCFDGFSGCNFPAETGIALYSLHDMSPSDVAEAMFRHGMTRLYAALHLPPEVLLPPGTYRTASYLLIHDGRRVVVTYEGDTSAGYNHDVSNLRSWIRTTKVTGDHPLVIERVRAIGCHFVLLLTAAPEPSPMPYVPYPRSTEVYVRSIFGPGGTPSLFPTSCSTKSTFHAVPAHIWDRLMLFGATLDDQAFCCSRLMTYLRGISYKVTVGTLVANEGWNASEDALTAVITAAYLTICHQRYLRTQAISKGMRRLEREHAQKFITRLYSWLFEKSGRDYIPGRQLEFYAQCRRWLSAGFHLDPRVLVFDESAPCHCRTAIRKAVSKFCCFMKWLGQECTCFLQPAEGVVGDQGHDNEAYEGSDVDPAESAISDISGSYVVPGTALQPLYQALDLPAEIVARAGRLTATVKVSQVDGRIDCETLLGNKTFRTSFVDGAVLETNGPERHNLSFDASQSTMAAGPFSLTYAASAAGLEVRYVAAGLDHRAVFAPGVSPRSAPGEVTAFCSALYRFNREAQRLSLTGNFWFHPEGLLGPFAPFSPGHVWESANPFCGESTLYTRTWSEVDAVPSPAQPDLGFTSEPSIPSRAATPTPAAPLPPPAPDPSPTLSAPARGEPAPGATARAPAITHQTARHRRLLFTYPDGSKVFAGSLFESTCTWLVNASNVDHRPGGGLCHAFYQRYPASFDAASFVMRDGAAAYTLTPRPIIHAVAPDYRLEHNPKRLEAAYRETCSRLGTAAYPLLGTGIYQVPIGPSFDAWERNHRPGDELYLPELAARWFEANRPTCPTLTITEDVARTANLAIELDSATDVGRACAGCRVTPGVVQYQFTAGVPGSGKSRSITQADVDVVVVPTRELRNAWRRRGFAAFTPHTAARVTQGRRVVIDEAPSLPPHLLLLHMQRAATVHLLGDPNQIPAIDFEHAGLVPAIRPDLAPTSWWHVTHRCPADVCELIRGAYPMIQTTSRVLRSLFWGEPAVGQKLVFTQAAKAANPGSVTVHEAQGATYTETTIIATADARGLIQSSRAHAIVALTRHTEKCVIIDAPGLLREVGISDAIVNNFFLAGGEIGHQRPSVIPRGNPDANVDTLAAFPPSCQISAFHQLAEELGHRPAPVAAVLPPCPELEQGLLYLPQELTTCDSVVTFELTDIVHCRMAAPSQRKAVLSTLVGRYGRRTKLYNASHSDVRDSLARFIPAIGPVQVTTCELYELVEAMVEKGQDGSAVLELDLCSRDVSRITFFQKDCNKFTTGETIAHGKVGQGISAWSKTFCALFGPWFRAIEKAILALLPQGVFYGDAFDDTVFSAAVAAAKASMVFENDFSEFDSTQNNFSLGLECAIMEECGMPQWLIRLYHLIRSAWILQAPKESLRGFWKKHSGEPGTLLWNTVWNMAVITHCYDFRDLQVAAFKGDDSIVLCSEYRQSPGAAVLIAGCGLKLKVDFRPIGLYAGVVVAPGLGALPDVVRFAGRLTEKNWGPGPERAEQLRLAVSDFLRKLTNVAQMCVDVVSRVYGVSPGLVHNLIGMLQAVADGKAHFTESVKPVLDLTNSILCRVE
# UniProt O58586, sequence (whole entry, looked up): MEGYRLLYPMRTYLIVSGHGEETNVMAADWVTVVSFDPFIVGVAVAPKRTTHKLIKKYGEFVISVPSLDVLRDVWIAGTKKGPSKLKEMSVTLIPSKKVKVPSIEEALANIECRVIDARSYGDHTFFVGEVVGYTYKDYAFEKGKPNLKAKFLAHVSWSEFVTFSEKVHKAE
# UniProt P02730, sequence (whole entry, looked up): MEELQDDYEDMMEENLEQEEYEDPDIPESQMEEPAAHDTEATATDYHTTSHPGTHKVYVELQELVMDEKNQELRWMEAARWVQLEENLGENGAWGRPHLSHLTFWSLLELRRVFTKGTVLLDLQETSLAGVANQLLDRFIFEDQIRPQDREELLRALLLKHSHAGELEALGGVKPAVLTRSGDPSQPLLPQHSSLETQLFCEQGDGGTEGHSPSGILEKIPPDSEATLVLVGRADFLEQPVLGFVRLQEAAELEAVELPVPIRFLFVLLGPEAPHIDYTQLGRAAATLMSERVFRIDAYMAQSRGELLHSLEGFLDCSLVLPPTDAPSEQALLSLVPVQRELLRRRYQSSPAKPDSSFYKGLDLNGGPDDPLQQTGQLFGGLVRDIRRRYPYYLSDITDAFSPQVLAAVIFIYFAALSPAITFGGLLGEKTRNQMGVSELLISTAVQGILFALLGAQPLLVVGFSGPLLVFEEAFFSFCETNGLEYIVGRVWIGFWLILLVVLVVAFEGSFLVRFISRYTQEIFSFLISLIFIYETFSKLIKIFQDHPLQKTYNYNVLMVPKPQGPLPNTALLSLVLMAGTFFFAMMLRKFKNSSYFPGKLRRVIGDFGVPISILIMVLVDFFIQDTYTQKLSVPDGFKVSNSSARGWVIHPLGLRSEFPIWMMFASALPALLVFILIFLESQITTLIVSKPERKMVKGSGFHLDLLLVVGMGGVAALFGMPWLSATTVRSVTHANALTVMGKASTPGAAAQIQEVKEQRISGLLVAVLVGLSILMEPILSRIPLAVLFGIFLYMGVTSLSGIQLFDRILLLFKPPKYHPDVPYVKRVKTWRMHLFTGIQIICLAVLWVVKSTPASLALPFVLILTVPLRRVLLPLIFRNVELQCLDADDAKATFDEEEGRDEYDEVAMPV
# UniProt P38998, sequence (whole entry, unmodified, looked up): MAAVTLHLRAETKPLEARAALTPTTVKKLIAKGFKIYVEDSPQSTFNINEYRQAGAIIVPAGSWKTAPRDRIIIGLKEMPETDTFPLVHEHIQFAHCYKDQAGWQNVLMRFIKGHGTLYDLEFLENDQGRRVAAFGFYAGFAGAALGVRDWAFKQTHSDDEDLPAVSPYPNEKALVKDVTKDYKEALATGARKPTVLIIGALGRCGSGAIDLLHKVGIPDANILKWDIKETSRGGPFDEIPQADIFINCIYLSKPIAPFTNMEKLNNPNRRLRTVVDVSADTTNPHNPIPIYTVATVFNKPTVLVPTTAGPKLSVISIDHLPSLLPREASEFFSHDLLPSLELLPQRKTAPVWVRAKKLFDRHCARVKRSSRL
# UniProt Q7Z1V1, sequence (whole entry, looked up): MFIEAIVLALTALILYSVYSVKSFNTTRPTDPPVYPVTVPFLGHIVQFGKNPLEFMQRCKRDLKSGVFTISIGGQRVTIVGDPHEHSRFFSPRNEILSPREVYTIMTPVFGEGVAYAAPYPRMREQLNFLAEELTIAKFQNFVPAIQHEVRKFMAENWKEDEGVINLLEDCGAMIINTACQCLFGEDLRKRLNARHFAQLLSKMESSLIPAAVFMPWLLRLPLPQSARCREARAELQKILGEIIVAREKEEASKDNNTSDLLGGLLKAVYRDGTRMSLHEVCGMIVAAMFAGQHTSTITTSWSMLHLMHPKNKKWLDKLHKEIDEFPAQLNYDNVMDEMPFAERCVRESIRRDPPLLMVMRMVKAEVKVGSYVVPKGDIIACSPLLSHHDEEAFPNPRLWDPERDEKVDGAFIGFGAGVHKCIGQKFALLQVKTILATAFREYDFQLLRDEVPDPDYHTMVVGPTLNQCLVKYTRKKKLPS
Molecule,tested on,test,test system,conditions,quantity,result
C[C@]12C[C@H](O)[C@H]3[C@@H](CCC4=CC(=O)CC[C@@]43C)[C@@H]1CC[C@@H]2C(=O)CO,mouse anti-cortisol Fab 17,native MS titration,200 mM ammonium acetate,"1.5% DMSO, 0.5% methanol, with: Fab 100 nM",Kd,0.064 ± 0.016 µM
B1 (UGT1A9),O=c1cc(-c2ccccc2)oc2cc(O)ccc12,steady-state kinetics,,"pH 7.4, 37 °C",Vmax/Km,1360 µL/min/mg
O=C(O)c1ccc(F)cc1,"benA (Pseudomonas putida, UniProt Q88I40)","substrate binding, substrate, stopped-flow single turnover",reduced enzyme,"pH 6.8, 4 °C, with: O2 saturated",Kd,226 ± 40 µM
B2 (Pcf11 CID D117K),Saccharomyces cerevisiae CTD-binding protein,fluorescence anisotropy competition,,"pH 7.4, first binding event, with: four-heptad Ser2P CTD peptide",Kd,30 µM
CC(=O)N[C@H]1[C@H](O[C@H]2[C@@H](O)[C@@H](CO)O[C@H](O[C@@H]3[C@H](O)[C@@H](O)[C@H](O[C@H]4[C@H](O)[C@@H](O)[C@H](O)O[C@@H]4CO)O[C@@H]3CO)[C@@H]2O)O[C@H](CO)[C@H](O)[C@@H]1O[C@@H]1O[C@H](CO)[C@H](O)[C@H](O)[C@H]1O[C@@H]1O[C@@H](C)[C@@H](O)[C@@H](O)[C@@H]1O,"Ribonuclease pancreatic (RNASE1, Bos taurus, UniProt P61823, A45C)",binding,,pH 5,Kd,17 µM
B3 (Pcf11 CID D117A),Saccharomyces cerevisiae CTD-binding protein,fluorescence anisotropy competition,,"pH 7.4, second binding event, with: four-heptad Ser2P CTD peptide",Kd,430 µM
C#Cc1ccc2ccccc2c1,"Cytochrome P450 2A6 (CYP2A6, Homo sapiens, UniProt P11509)","binding, absorbance",,pH 7.4,Kd,1 µM
B4 (α-TTP I202D),alpha-tocopherol transfer protein variants,"binding, fluorescence titration",,with: NBD-Toc,Kd,0.026 µM
[3H]dihydroalprenolol,"ADRB1 (Meleagris gallopavo, UniProt P07700)","radioligand, saturation binding",DDM-solubilised E. coli membranes,"wild-type receptor, turkey",Kd,0.00192 ± 7e-05 µM
CCCCCCCCCCCCCCCC(=O)OC[C@H](COP(=O)(O)O[C@@H]1[C@H](O)[C@H](OP(=O)(O)O)[C@@H](O)[C@H](O)[C@H]1O)OC(=O)CCCCCCCCCCCCCCC,"Golgi phosphoprotein 3 (GOLPH3, Homo sapiens, UniProt Q9H4A6)",surface plasmon resonance,DOPC vesicles 3 mol% lipid,"pH 7.5, 25 °C",Kd,10.2 ± 0.5 µM
NC(=O)C1=CN([C@@H]2O[C@H](COP(=O)(O)OP(=O)(O)OC[C@H]3O[C@@H](n4cnc5c(N)ncnc54)[C@H](O)[C@@H]3O)[C@@H](O)[C@H]2O)C=CC1,"LYS1 (Saccharomyces cerevisiae, UniProt P38998, K99M/C205S)",substrate,,"pH 7.2, 25 °C, saccharopine formation direction",Kd,310 ± 60 µM
[I-].[K+],"SLC4A1 (Homo sapiens, UniProt P02730)","36Cl exchange flux, inhibitor, Dixon plot",human red blood cells,"pH 12.4 external, 0 °C, internal Cl 294 mM, CAPS buffer",Kd,74000 µM
O=P(O)(O)O[C@@H]1[C@H](O)[C@H](O)[C@@H](OP(=O)(O)O)[C@H](OP(=O)(O)O)[C@H]1O,Abl1 SH2 domain,HSQC NMR titration,,"SH2 domain, no KCl",Kd,85 ± 5 µM
fibrinogen,"Integrin alpha-M/beta-2 (Homo sapiens, UniProt P05107+P11215)",binding,,,Kd,0.01 µM
Cc1cn([C@H]2C=C[C@@H](COP(=O)(O)OP(=O)(O)OP(=O)(O)O)O2)c(=O)[nH]c1=O,"Gag-Pol polyprotein, reverse transcriptase (gag-pol, Human immunodeficiency virus type 1 group M subtype B, UniProt P04585)","nucleotide binding, pre-steady-state kinetics",,with: 6 mM Mg2+,Kd,11.6 ± 2.3 µM
O=Cc1ccccc1B(O)O,cysteine,"thiazolidine formation, NMR competition",,,Kd,4.6 µM
B5 (α-TTP V206A),alpha-tocopherol transfer protein variants,"binding, fluorescence titration",,with: NBD-Toc,Kd,0.023 µM
CCCC(=O)OC[C@H](COP(=O)(O)O[C@H]1[C@H](O)[C@@H](OP(=O)(O)O)[C@H](OP(=O)(O)O)[C@@H](OP(=O)(O)O)[C@H]1O)OC(=O)CCC,Abl1 SH2 domain,HSQC NMR titration,,"SH2 domain, no KCl",Kd,200 ± 7 µM
Nc1ncnc2nc[nH]c12,MTAP,"binding, isothermal titration calorimetry",,second site of three sequential,Kd,2.1 ± 0.08 µM
CCCC(=O)OCC(COP(=O)(O)OC1C(O)C(O)C(OP(=O)(O)O)C(OP(=O)(O)O)C1O)OC(=O)CCC (stereo not shown),Abl1 SH2 domain,HSQC NMR titration,,"SH2 domain, no KCl",Kd,260 ± 22 µM
"phosphatidylinositol 4,5-bisphosphate","NF2, FERM domain (Homo sapiens, UniProt P35240)",isothermal titration calorimetry,,"pH 7.5, 25 °C",Kd,3.38 ± 0.799 µM
NC(=O)C1=CN([C@@H]2O[C@H](COP(=O)(O)OP(=O)(O)OC[C@H]3O[C@@H](n4cnc5c(N)ncnc54)[C@H](OP(=O)(O)O)[C@@H]3O)[C@@H](O)[C@H]2O)C=CC1,"Uncharacterized protein PH0856 (Pyrococcus horikoshii, UniProt O58586)","substrate, stopped-flow reductive half-reaction",,,Kd,114 µM
SGVPDRF,,,"peptide, human polyclonal IgM RF ABR","concentration not given, 5 µg/mL mAb II-481 coated, with: RF at 50% max binding concentration",inhibition,62%
O=C(O)c1cccnc1Nc1cccc(C(F)(F)F)c1,"Chloride channel protein ClC-Ka (Clcnka, Rattus norvegicus, UniProt Q06393, F256A)","chloride current, blocker, voltage clamp",Xenopus oocytes,without barttin,Kd,~33 µM
CCCCCCCC(=O)OC[C@H](COP(=O)(O)O[C@H]1[C@H](O)[C@@H](OP(=O)(O)O)[C@H](OP(=O)(O)O)[C@@H](OP(=O)(O)O)[C@H]1O)OC(=O)CCCCCCC,"Pleckstrin homology domain-containing family A member 7 (Homo sapiens, UniProt Q6IQ23)","binding, ITC",,pH 7.6,Kd,8 µM
B6 (α-TTP M209D),alpha-tocopherol transfer protein variants,"binding, fluorescence titration",,with: NBD-Toc,Kd,0.012 µM
CC(C)OC(=O)[C@H](C)N[P@](=O)(OC[C@H]1O[C@@H](n2ccc(=O)[nH]c2=O)[C@](C)(F)[C@@H]1O)Oc1ccccc1,"Non-structural polyprotein pORF1, RNA-dependent RNA polymerase (Hepatitis E virus genotype 1, UniProt P33424)","binding, microscale thermophoresis",,,Kd,0.015 µM and ~0.015 µM
Nc1nc2c(nc(SCCNc3ccc([N+](=O)[O-])c4nonc34)n2[C@@H]2O[C@@H]3COP(=O)(O)O[C@@H]3C2O)c(=O)[nH]1 (stereo partly shown),"Cyclic nucleotide-gated potassium channel (Spirochaeta thermophila, UniProt G0GA88)","binding, fluorescence titration",amphipol A8-35,"pH 7.4, room temperature",Kd,2.7 µM
CSC[C@H]1CN(Cc2c[nH]c3c(N)ncnc23)C[C@@H]1O,MTAP,isothermal titration calorimetry,,"pH 7.4, 25 °C, apo enzyme, first site set",Kd,0.04 ± 0.01 µM
Nc1ncnc2c1ncn2[C@@H]1O[C@H](COP(=O)(O)OP(=O)(O)OP(=O)(O)O)[C@@H](O)[C@H]1O,"Aurora kinase B (AURKB, Homo sapiens, UniProt Q96GD4)",,,,Kd,31 µM
Nc1ncnc2c1ncn2[C@H]1C[C@H](O)[C@@H](COP(=O)(O)OP(=O)(O)OP(=O)(O)O)O1,"DNA polymerase eta (POLH, Homo sapiens, UniProt Q9Y253)","nucleotide incorporation, substrate",,"pH 8.0, 37 °C, opposite undamaged dT",Kd,7.9 ± 0.8 µM
C[n+]1cccc2cc(C=NNC(=O)c3ccc4ccc5ccc(C(=O)NN=Cc6ccc7c(ccc[n+]7C)c6)nc5c4n3)ccc21,telomeric antiparallel G4 DNA,"binding, native ESI-MS",100 mM trimethylammonium acetate,1 mM KCl,Kd,0.054 µM
C[C@@](O)(CCOP(=O)(O)O)CC(=O)O,"PMVK (Homo sapiens, UniProt Q15126)",binding,,"pH 6.5, 25 °C, ternary complex formation, with: saturating Mg-ADP",Kd,< 20 µM
COCCOCCOCCOC(=O)c1ccc(-c2cc3ncc4[nH]c(=O)n([C@H](C)c5ccccn5)c4c3cc2OC)cc1,"Bromodomain factor 2 (Trypanosoma brucei brucei, UniProt Q38AM1)",ITC,,15 °C,Kd,66 ± 11 µM
CIKVAVS,,,"peptide, human polyclonal IgM RF ABR","concentration not given, 5 µg/mL mAb II-481 coated, with: RF at 50% max binding concentration",inhibition,0%
Nc1ncnc2c1ncn2[C@@H]1O[C@H](CSCC[C@H](N)C(=O)O)[C@@H](O)[C@H]1O,"tRNA (guanine(37)-N(1))-methyltransferase Trm5b (trm5b, Methanocaldococcus jannaschii, UniProt Q58293)","methyl transfer burst amplitude, inhibitor, rapid quench",,"pH 8.0, 55 °C, with: tRNA(Cys), 25 µM AdoMet",Kd,0.02 ± 0.005 µM
"O=C(N[C@H](Cn1ccnc1)c1ccc(Cl)cc1Cl)c1ccc(-c2nnc(-c3ccccc3)o2)cc1 (single isomer, unassigned)","Sterol 14-alpha demethylase (CYP51, Trypanosoma cruzi, UniProt Q7Z1V1)","binding, absorbance",,,Kd,0.12 µM

# Some of these lines once more:
Molecule,tested on,test,test system,conditions,quantity,result
COCCOCCOCCOC(=O)c1ccc(-c2cc3ncc4[nH]c(=O)n([C@H](C)c5ccccn5)c4c3cc2OC)cc1,"Bromodomain factor 2 (Trypanosoma brucei brucei, UniProt Q38AM1)",ITC,,15 °C,Kd,66 ± 11 µM
CIKVAVS,,,"peptide, human polyclonal IgM RF ABR","concentration not given, 5 µg/mL mAb II-481 coated, with: RF at 50% max binding concentration",inhibition,0%
